Measurements collected from several papers.
Compare with care: the assays were run in different laboratories. Numbers after ± are the reported error.

With `ksi D40H/D103N (Pseudomonas putida)` the pKa was 8.8 (UV-vis, item: Tyr57; 25 °C).
For `ORF56 (Sulfolobus islandicus, UniProt Q54323)`, the pKa was 9.66 (NMR, item: Lys6; free native homodimer, low salt).
The pKa of `nuc G50F/V51N/P117G/H124L/S128A/del44-49/E122Q (Staphylococcus aureus)` is reported as 5.3 (NMR, item: His121; 298 K, KCl 100 mM, numbering of the source).
For `CRYGD (Homo sapiens, UniProt P07320)`, the pKa was 6.07 (NMR, item: His83; 25 °C, numbering of the source).
With `PBP1 mature (Amyelois transitella)` the pKa was greater than 7 (NMR, item: His70; 25 °C, free protein; not delipidated).
`proteorhodopsin, retinal (uncultured gamma-proteobacterium EBAC31A08, UniProt Q9F7P4)` gave a pKa of 6.8 (UV-vis, item: Asp97; NaCl 100 mM, detergent-solubilised).
`Msrb2 fragment (Mus musculus)` gave a pKa of 7.2 (NMR, item: His148; 298 K, NaCl 25 mM, reduced, Zn2+-bound, substrate-free).
With `CISD1 K55E (Homo sapiens)` the pKa was 9.6 (UV-vis, item: His87; NaCl 100 mM, cluster oxidised).
The pKa of `ksi D40R/F56A/D103N (Pseudomonas putida)` is reported as 5.9 (UV-vis, item: Tyr57; 25 °C).
`CISD1 soluble cytoplasmic domain (Homo sapiens, UniProt Q9NZ45)` gave a pKa of 6.7 (redox potentiometric titration, item: His87; oxidised cluster, His87).
`iscU apo (Escherichia coli, UniProt P0ACD4)` gave a pKa of 6.5 (NMR titration, item: His105; 25 °C, NaCl 150 mM, D-state, averaged, apo).
With `emrE E14D (Escherichia coli)` the pKa was 7.3 (NMR, item: His110; 45 °C, NaCl 20 mM).
The pKa of `CRYGD P23T (Homo sapiens)` is reported as 5.45 (NMR, item: His22; 25 °C, numbering of the source).
For `Nitrophorin 2 V24E, heme b (Rhodnius prolixus)`, the pKa was 6.5 (NMR, item: Glu24; 35 °C, D2O, low-spin Fe(III), imidazole-bound, numbering of the source).
For `ksi D40K/D103N (Pseudomonas putida)`, the pKa was 9.2 (UV-vis, item: Tyr57; 25 °C).
With `rnpA F107W (Bacillus subtilis)` the pKa was 5.99 (NMR, item: His22; 25 °C, 20 ± 1 mM, unfolded state, no sulfate, numbering of the source).
`ksi Y16A/D40R/F56A/D103A (Pseudomonas putida)` has a pKa of greater than 10 (UV-vis, item: Tyr57; 25 °C).
The pKa of `PRL (Homo sapiens, UniProt P01236)` is reported as 5.82 (NMR, item: His138; 35 °C, numbering of the source).
With `ksi D40A/D103A (Pseudomonas putida)` the pKa was 8.7 (UV-vis, item: Tyr57; 25 °C).
The pKa of `nuc G50F/V51N/P117G/H124L/S128A/del44-49/L38E (Staphylococcus aureus)` is reported as 5.7 (NMR, item: His121; 298 K, KCl 100 mM, numbering of the source).
The pKa of `ksi D40A (Pseudomonas putida)` is reported as 7.1 (UV-vis, item: Tyr57; 25 °C).
`UGT1A9 (Homo sapiens, UniProt O60656)` gave a Km of 152 µM (CCCOC(=O)c1ccc(O)cc1; steady-state kinetics; pH 7.4, 37 °C).
`ksi Y16A/D40N/D103N (Pseudomonas putida)` has a pKa of greater than 10 (UV-vis, item: Tyr57; 25 °C).
For `ketosteroid isomerase D40N (Pseudomonas putida)`, the pKa was 6.65 (UV-vis, item: Tyr57; apparent, D2O, apo enzyme).

Repeated from above:
The pKa of `CRYGD P23T (Homo sapiens)` is reported as 5.45 (NMR, item: His22; 25 °C, numbering of the source).
With `PBP1 mature (Amyelois transitella)` the pKa was greater than 7 (NMR, item: His70; 25 °C, free protein; not delipidated).
With `ksi D40A/D103A (Pseudomonas putida)` the pKa was 8.7 (UV-vis, item: Tyr57; 25 °C).
